Results gathered from unrelated publications.
Protocols differ between the studies behind these lines. “And” joins repeats or separate records; there may be more than shown. Numbers after ± are the reported error.

Molecule = adenosylhomocysteinase; assay = co-immunoprecipitation; test system = human RBC cytosol; conditions = DMTMM crosslinker, unit not given, added: Band 3 peptide 1-56 bait; scale = baseline: negative control; endpoint = co-IP enrichment; value = 3950
Molecule = QYGAVPGSV; assay = CD8 T cell response; test system = peptide, naive splenocytes as APCs, mouse; conditions = 2 µg/mL, 48 h; endpoint = IFN-γ ELISpot response; value = negative
Molecule = CpG-ODN 1826; test system = mouse B16-F10 tumour, tumour; conditions = dose not given, day 8; scale = baseline: CD8 T cells; endpoint = LAG-3+ cells; value = 15 ± 4.18%
Molecule = SFHLTQTDL; assay = CD8 T cell response; test system = peptide, naive splenocytes as APCs, mouse; conditions = 2 µg/mL, 48 h; endpoint = IFN-γ ELISpot response; value = negative
Molecule = glucagon; test system = mouse; conditions = dose not given, 3 h; endpoint = plasma free fatty acids; value = 0.479 mmol/L and 0.505 mmol/L and 0.448 mmol/L and 0.604 mmol/L and 0.297 mmol/L
Molecule = RPTSSADEL; assay = CD8 T cell response; test system = peptide, naive splenocytes as APCs, mouse; conditions = 2 µg/mL, 48 h; endpoint = IFN-γ ELISpot response; value = negative
Molecule = calcium; assay = ion current, two-electrode voltage clamp; test system = Xenopus oocytes; conditions = 1.8 mM, -80 mV, added: niflumic acid present; endpoint = desensitization time constant; value = 14.9 s and 4.59 s and 13.1 s and 7.54 s and 18.5 s
Molecule = heparin sodium; test system = human; conditions = intravenous infusion, 8 IU/kg/h, day 1 to 6; scale = baseline: baseline; endpoint = time to Emax of aPTT ratio; value = 84 h
Molecule = insulin; test system = women with gestational diabetes; conditions = dose not given, metformin-treated group, median; endpoint = newborn birth weight; value = 2.96 kg
Molecule = difelikefalin; test system = Japanese haemodialysis patients with pruritus; conditions = intravenous, 0.5 µg/kg, 8 weeks; endpoint = PGIC minimally worse; value = 1.7%
Molecule = Peginesatide; target or system = UT7/EPO; assay = microarray, item: THBS1 mRNA (probe set 235086_at); conditions = 20 nM, 90 min; scale = baseline: vehicle; endpoint = mRNA level; value = 2.6 fold
Molecule = VGSMGALVF; assay = CD8 T cell response; test system = peptide, naive splenocytes as APCs, mouse; conditions = 2 µg/mL, 48 h; endpoint = IFN-γ ELISpot response; value = negative
Molecule = liraglutide; test system = Wistar rat, female, diet-induced obese, blood, fasted; conditions = subcutaneous, dose not given, after 4 weeks treatment; endpoint = blood glucose; value = 104 ± 2.4 mg/dL
Molecule = QYIKLYPVL; assay = CD8 T cell response; test system = peptide, naive splenocytes as APCs, mouse; conditions = 2 µg/mL, 48 h; endpoint = IFN-γ ELISpot response; value = negative
Molecule = cotadutide; test system = C57BL/6J mouse, AMLN diet NASH model; conditions = dose not given, terminal; endpoint = plasma AST; value = 213 ± 35 U/L
Molecule = KCNTATCATQRLANFLVHSSNNFGPILPPTNVGSNTY (Pramlintide; sequence looked up); assay = ELISA; test system = peptide, Tg2576 mouse, CSF; conditions = intraperitoneal, dose not given, 10 weeks daily; endpoint = Aβ1-40 level; value = 182 ± 58.9 pg/mL
Molecule = GSGAGQITKV; target or system = human MAGI1-2/6 PDZ construct (MBP fusion); assay = surface plasmon resonance; test system = peptide; conditions = concentration not given; scale = higher = stronger binding; endpoint = normalised SPR binding response; value = 0 normalised RU
Molecule = insulin degludec; assay = euglycaemic hyperinsulinaemic clamp; test system = healthy Chinese male humans; conditions = subcutaneous, 0.4 IU/kg, 24 h, 2 FC level, single dose, reference formulation; endpoint = maximum glucose infusion rate; value = 2.49 ± 0.71 mg/kg/min
Molecule = MTVCNASQRQAHAQATAVSL; assay = phage binding; test system = peptide, panel of 11 cancer lines; conditions = selectivity at least 20; endpoint = number of cell lines; value = 2
Molecule = insulin glargine; assay = self-monitoring; test system = type 2 diabetic patients; conditions = dose not given, one-week bedtime treatment; endpoint = mean blood glucose; value = 129 ± 13 mg/dL
Molecule = hemoglobin beta; assay = co-immunoprecipitation; test system = human RBC cytosol; conditions = DSSO crosslinker, unit not given, added: Band 3 peptide 1-56 bait; scale = baseline: negative control; endpoint = co-IP enrichment; value = 165000
Molecule = GSGAGHETIV; target or system = human MAGI1-3/6 PDZ construct (MBP fusion); assay = surface plasmon resonance; test system = peptide; conditions = concentration not given; scale = higher = stronger binding; endpoint = normalised SPR binding response; value = 16.8 normalised RU
Molecule = SEC11A; assay = co-immunoprecipitation; test system = human RBC membrane; conditions = DMTMM crosslinker, unit not given, added: Band 3 peptide 1-56 bait; scale = baseline: negative control; endpoint = co-IP enrichment; value = 12.8
Molecule = semaglutide; test system = DIO male Wistar rats; conditions = dose not given, 7 weeks; endpoint = fasting plasma insulin; value = 10.6 ± 1.4 ng/mL
Molecule = maraviroc; assay = ELISA; test system = HIV-infected mice, brain; conditions = i.p., 120 mg/kg twice daily, 3 weeks post infection; scale = baseline: HIV-infected untreated mice; endpoint = reversal of Aβ40 reduction; value = 2.63 fold
Molecule = insulin aspart; assay = euglycaemic clamp; test system = human, type 1 diabetes; conditions = subcutaneous, 0.3 U/kg, geometric mean; endpoint = glucose infusion rate AUC(0-4h); value = 1630 mg/kg
Molecule = LPVGGFWSL; assay = CD8 T cell response; test system = peptide, naive splenocytes as APCs, mouse; conditions = 2 µg/mL, 48 h; endpoint = IFN-γ ELISpot response; value = negative
Molecule = colistin; target or system = Klebsiella pneumoniae; assay = broth microdilution; test system = clinical isolate RKI-No_138/16; endpoint = MIC; value = 64 µg/mL
Molecule = YEQDPWGVKWWY; test system = peptide, mouse, CP model, serum; conditions = 0.154 µmol/kg, 4 weeks; scale = baseline: untreated CP mice; endpoint = serum IL-3; value = inhibited
Molecule = tripeptidyl peptidase 2; assay = co-immunoprecipitation; test system = human RBC cytosol; conditions = DMTMM crosslinker, unit not given, added: Band 3 peptide 1-56 bait; scale = baseline: negative control; endpoint = co-IP enrichment; value = 1900
Molecule = somatropin; test system = Turner syndrome patients; conditions = dose not given, median 4 years, median; endpoint = height at last follow-up; value = 141 cm
Molecule = CCT3; assay = co-immunoprecipitation; test system = human plasma; conditions = unit not given, added: Band 3 peptide 1-56 bait; scale = baseline: negative control; endpoint = co-IP enrichment; value = 0
Molecule = insulin aspart; assay = euglycaemic glucose clamp; test system = human, younger adults with type 1 diabetes; conditions = subcutaneous, 0.2 U/kg; endpoint = AUC of glucose infusion rate; value = 1200 mg/kg
Molecule = USP14; assay = co-immunoprecipitation; test system = human RBC membrane; conditions = DSSO crosslinker, unit not given, added: Band 3 peptide 1-56 bait; scale = baseline: negative control; endpoint = co-IP enrichment; value = 391
Molecule = Pam2CSK4; test system = APP/PS1 mouse, cortex; conditions = local injection, dose not given, unit not given; scale = baseline: injected over adjacent side; endpoint = Iba1 level; value = 8.48 and 4.74
Molecule = CCT4; assay = co-immunoprecipitation; test system = human RBC cytosol; conditions = DSSO crosslinker, unit not given, added: Band 3 peptide 1-56 bait; scale = baseline: negative control; endpoint = co-IP enrichment; value = 150
Molecule = KGPIVLLNV; assay = CD8 T cell response; test system = peptide, naive splenocytes as APCs, mouse; conditions = 2 µg/mL, 48 h; endpoint = IFN-γ ELISpot response; value = negative
Molecule = human alpha-enolase; assay = co-immunoprecipitation; test system = human RBC membrane; conditions = DMTMM crosslinker, unit not given, added: Band 3 peptide 1-56 bait; scale = baseline: negative control; endpoint = co-IP enrichment; value = 0
Molecule = VPAFIFGQL; assay = CD8 T cell response; test system = peptide, naive splenocytes as APCs, mouse; conditions = 2 µg/mL, 48 h; endpoint = IFN-γ ELISpot response; value = negative

Some of these lines once more:
Molecule = hemoglobin beta; assay = co-immunoprecipitation; test system = human RBC cytosol; conditions = DSSO crosslinker, unit not given, added: Band 3 peptide 1-56 bait; scale = baseline: negative control; endpoint = co-IP enrichment; value = 165000
Molecule = GSGAGHETIV; target or system = human MAGI1-3/6 PDZ construct (MBP fusion); assay = surface plasmon resonance; test system = peptide; conditions = concentration not given; scale = higher = stronger binding; endpoint = normalised SPR binding response; value = 16.8 normalised RU
Molecule = SEC11A; assay = co-immunoprecipitation; test system = human RBC membrane; conditions = DMTMM crosslinker, unit not given, added: Band 3 peptide 1-56 bait; scale = baseline: negative control; endpoint = co-IP enrichment; value = 12.8
Molecule = semaglutide; test system = DIO male Wistar rats; conditions = dose not given, 7 weeks; endpoint = fasting plasma insulin; value = 10.6 ± 1.4 ng/mL
